# Measured values gathered from unrelated publications.
# Values joined by “and” are separate records of one study, mostly repeats; a detail may differ. ± marks the error that the study gave.
# Sequence of UniProt P42785 (whole entry, looked up): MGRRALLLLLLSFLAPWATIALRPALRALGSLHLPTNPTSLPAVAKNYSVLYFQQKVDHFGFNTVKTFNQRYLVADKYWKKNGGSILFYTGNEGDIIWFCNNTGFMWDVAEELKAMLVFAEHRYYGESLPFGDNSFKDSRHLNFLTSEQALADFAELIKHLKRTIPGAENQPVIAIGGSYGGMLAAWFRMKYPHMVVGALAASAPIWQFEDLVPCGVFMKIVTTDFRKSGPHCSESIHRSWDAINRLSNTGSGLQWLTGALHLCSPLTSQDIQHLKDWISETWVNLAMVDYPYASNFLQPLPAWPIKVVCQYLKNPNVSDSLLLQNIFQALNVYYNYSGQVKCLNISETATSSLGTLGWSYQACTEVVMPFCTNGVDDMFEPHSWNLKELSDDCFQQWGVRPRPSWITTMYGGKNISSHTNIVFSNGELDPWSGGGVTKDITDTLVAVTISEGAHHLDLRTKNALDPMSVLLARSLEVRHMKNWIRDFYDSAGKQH
# Sequence of UniProt Q15303 (whole entry, looked up): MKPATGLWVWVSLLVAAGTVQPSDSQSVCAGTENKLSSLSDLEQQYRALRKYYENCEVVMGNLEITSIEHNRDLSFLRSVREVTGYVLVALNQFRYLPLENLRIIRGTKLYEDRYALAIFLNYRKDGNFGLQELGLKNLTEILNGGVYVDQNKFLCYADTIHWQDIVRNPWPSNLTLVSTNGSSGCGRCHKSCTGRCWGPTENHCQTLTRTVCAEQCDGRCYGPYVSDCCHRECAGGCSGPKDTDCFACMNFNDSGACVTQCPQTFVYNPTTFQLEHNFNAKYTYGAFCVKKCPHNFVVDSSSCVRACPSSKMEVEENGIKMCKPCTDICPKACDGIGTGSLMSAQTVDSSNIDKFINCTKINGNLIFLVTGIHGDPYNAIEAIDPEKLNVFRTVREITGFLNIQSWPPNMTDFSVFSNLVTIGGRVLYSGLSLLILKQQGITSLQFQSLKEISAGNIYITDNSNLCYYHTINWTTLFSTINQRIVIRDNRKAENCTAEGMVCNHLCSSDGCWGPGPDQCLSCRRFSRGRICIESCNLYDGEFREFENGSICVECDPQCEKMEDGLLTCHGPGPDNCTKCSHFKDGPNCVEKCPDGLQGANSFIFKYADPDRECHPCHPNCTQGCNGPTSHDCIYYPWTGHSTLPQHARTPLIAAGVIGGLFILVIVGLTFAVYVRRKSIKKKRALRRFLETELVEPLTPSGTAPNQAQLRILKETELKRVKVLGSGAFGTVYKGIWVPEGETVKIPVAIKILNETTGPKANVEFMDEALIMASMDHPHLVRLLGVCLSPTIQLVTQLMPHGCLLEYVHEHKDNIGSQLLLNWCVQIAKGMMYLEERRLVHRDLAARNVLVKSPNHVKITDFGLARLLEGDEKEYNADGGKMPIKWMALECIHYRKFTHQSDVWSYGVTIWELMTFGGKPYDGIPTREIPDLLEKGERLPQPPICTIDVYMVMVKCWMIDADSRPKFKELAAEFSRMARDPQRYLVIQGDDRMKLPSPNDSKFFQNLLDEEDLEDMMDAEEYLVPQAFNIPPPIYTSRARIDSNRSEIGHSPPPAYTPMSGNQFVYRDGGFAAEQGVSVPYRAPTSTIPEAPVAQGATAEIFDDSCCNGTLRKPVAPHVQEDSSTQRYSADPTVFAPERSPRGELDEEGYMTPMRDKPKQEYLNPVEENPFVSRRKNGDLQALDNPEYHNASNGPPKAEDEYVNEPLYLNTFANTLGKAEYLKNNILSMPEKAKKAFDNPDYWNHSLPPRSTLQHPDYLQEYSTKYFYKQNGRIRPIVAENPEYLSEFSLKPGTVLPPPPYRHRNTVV
Compound,tested on,test,test system,conditions,scale,endpoint,value
CC(C)C[C@H](NC(=O)OCc1ccccc1)C(=O)N[C@H](C=O)C[C@@H]1CCCNC1=O,MRC5,cytotoxicity,,,,CC50,> 100 µM
CO[C@H]1C[C@@H]2CC[C@@H](C)[C@@](O)(O2)C(=O)C(=O)N2CCCC[C@H]2C(=O)O[C@H]([C@H](C)C[C@@H]2CC[C@@H](OC(=O)NCCOCCOCCOCCOCCOCCOCCOCCOCCC(=O)N3CCc4cc(Cn5nc(-c6ccc7oc(N)nc7c6)c6c(N)ncnc65)ccc4C3)[C@H](OC)C2)C[C@@H](O)[C@H](C)/C=C(\C)[C@@H](O)[C@@H](OC)C(=O)[C@H](C)C[C@H](C)/C=C/C=C/C=C/1C,,"phase 1 dose escalation, refers to: mucositis",advanced solid tumour patients,"intravenous, 6 mg weekly, any grade",,TRAE incidence,50%
CC[C@H](C)[C@H](NC(=O)[C@@H](N)CC(N)=O)C(=O)N1CCC[C@H]1C(=O)N1CCC[C@H]1C(=O)N[C@@H](CC(C)C)C(=O)N[C@H](C(=O)N[C@@H](CCC(N)=O)C(=O)N[C@H](C(=O)N1CCC[C@H]1C(=O)N[C@H](C(=O)N[C@H](C(=O)N[C@H](C(=O)N1CCC[C@H]1C(=O)N1CCC[C@H]1C(=O)N[C@@H](Cc1ccccc1)C(=O)N[C@@H](CC(C)C)C(=O)N[C@@H](CCC(N)=O)C(=O)N1CCC[C@H]1C(=O)N[C@@H](CCC(=O)O)C(=O)O)C(C)C)C(C)C)C(C)C)[C@@H](C)O)[C@@H](C)O,Caco-2 monolayers,,,"10 µM, 30 min, 37 °C",,transport,0.39 ± 0.17%
O=C(O)C(F)(F)C(F)(F)C(F)(F)C(F)(F)F,hTERT-RPTEC parental,,,"concentration not given, 96-well plate",,LDH release,29.2 mU/mL and 18.4 mU/mL and 28.2 mU/mL and 27.6 mU/mL
COc1cc2c(Oc3ccc4[nH]c(C)cc4c3F)ccnc2cc1OCC1(N)CC1,,,paediatric recurrent refractory sarcoma,"concentration not given, whole group",,grade 1 or 2 Headache,20.6%
N=C(N)NCCC[C@H](NC(=O)[C@H](CCCNC(=N)N)NC(=O)[C@H](CCCNC(=N)N)NC(=O)[C@H](CCC(N)=O)NC(=O)[C@H](CCCNC(=N)N)NC(=O)[C@H](CCCNC(=N)N)NC(=O)[C@H](CCCCN)NC(=O)[C@H](CCCCN)NC(=O)[C@H](CCCNC(=N)N)NC(=O)CNC(=O)[C@@H](N)Cc1ccc(O)cc1)C(=O)O,DF-1,LDH release,,"5 µM, 1 h",,viability,98.1 ± 2.46%
O=c1ccc2ccccc2o1,NHEK,cell count,,"concentration not given, 1 h, NRF2 oxidative stress panel",,chance response,0%
CC[C@H](C)[C@H](NC(=O)[C@H](Cc1ccccc1)NC(=O)[C@H](CCC(=O)O)NC(=O)[C@H](CCCNC(=N)N)NC(=O)[C@H](C)NC(=O)[C@H](C)NC(=O)[C@H](CCC(N)=O)NC(=O)[C@H](CCC(=O)O)NC(=O)[C@H](CCC(=O)O)NC(=O)[C@H](CC(C)C)NC(=O)[C@H](Cc1ccc(O)cc1)NC(=O)[C@H](CO)NC(=O)[C@H](CO)NC(=O)[C@@H](NC(=O)[C@H](CC(=O)O)NC(=O)[C@H](CO)NC(=O)[C@@H](NC(=O)[C@H](Cc1ccccc1)NC(=O)[C@@H](NC(=O)CNC(=O)[C@H](CCC(=O)O)NC(=O)[C@H](C)NC(=O)CCc1c[nH]cn1)[C@@H](C)O)[C@@H](C)O)C(C)C)C(=O)N[C@@H](C)C(=O)N[C@@H](Cc1c[nH]c2ccccc12)C(=O)N[C@@H](CC(C)C)C(=O)N[C@H](C(=O)N[C@@H](CCCNC(=N)N)C(=O)NCC(=O)N[C@@H](CCCNC(=N)N)C(=O)N[C@@H](CCCCNC(=O)COCCOCCNC(=O)COCCOCCNC(=O)CC[C@H](NC(=O)CCCCCCCCCCCCCCCCC(=O)O)C(=O)O)C(=O)NCC(=O)NCC(=O)N[C@@H](CO)C(=O)N[C@@H](CCCCNc1c(NCCCCCN(O)C(=O)CCC(=O)NCCCCCN(O)C(=O)CCC(=O)NCCCCCN(O)C(C)=O)c(=O)c1=O)C(=O)O)C(C)C [zirconium-89 labelled],,,"rat, spleen","iv, 3 nmol/kg, 72 h, ex vivo",,tissue uptake,0.46 %ID/g
C#CCN(C)Cc1ccc(O)c2ncccc12,"LUHMES MT1G-HiBiT neurons, differentiated",,,concentration not given,,cytotoxicity,toxic
Fc1ccc(-c2ccc(CN3CCN(c4cccc5ccoc45)CC3)[nH]2)cc1,293T-ACE2,,,40 (unit not given),,CC50,0.17 µM
N=C(N)NCCC[C@H](NC(=O)[C@H](CCCNC(=N)N)NC(=O)[C@H](CCCCN)NC(=O)[C@H](CCCNC(=N)N)NC(=O)[C@H](Cc1ccccc1)NC(=O)[C@H](Cc1ccc(O)cc1)NC(=O)[C@H](CCCNC(=N)N)NC(=O)[C@H](CCCNC(=N)N)NC(=O)[C@H](CCCNC(=N)N)NC(=O)[C@H](CCCNC(=N)N)NC(=O)[C@H](CCCNC(=N)N)NC(=O)[C@H](Cc1ccc(O)cc1)NC(=O)[C@H](CCCNC(=N)N)NC(=O)[C@@H](N)CCCNC(=N)N)C(=O)O,DF-1,LDH release,,"5 µM, 1 h",,viability,95.7 ± 1.4%
CC(C)C[C@H](NC(=O)[C@H](CCCNC(=N)N)NC(=O)[C@H](Cc1c[nH]c2ccccc12)NC(=O)[C@H](CCCNC(=N)N)NC(=O)[C@H](Cc1c[nH]c2ccccc12)NC(=O)[C@H](Cc1c[nH]c2ccccc12)NC(=O)[C@H](Cc1c[nH]c2ccccc12)NC(=O)[C@H](CCCNC(=N)N)NC(=O)[C@H](Cc1c[nH]c2ccccc12)NC(=O)[C@@H](N)CCCNC(=N)N)C(N)=O,HD11 macrophages,,,,,LC50,> 512 µM
Cc1cc(C(C)(C)c2ccc(O)c(C)c2)ccc1O,HepG2 spheroids,propidium iodide staining,,"concentration not given, 24 h",,necrotic cells,decreased
O=C(c1ccc(Cl)cc1)N1CCN2C(=O)N(OC(=O)N3CCOc4ccccc43)C(=O)C2C1 (stereo not drawn),"Lysosomal Pro-X carboxypeptidase (PRCP, Homo sapiens, UniProt P42785)","enzyme activity, inhibitor, MS-based ABPP",SW-620 in situ,"10 µM, 2 h, 37 °C","baseline: compound over DMSO, lower = stronger inhibition",median ratio,1.03
COc1cc(Nc2ncc(F)c(Nc3ccc4c(n3)NC(=O)C(C)(C)O4)n2)cc(OC)c1OC,"5-hydroxytryptamine receptor 1A (HTR1A, Homo sapiens, UniProt P08908)",,,,,IC50,> 10 µM
C[C@H]1CN(c2n[nH]c3nc(N[C@H]4CC[C@H](NS(=O)(=O)CCC(F)(F)F)CC4)ncc23)CCO1,"Receptor tyrosine-protein kinase erbB-4 (ERBB4, Homo sapiens, UniProt Q15303)","inhibitor, Kinobeads competition profiling",,20 µM,baseline: vehicle,relative abundance,1.08
Cc1cc(C(=O)NC(C)(C)COc2cccc3c2C(N)=NS(=O)(=O)N3)cc(C)n1,Salmonella typhimurium,"Ames test, initial",TA98,"1500 µg/plate, added: rat liver S9",baseline: solvent control,revertant ratio,1.1
CC(c1ccccc1)(c1ccc(O)cc1)c1ccc(O)cc1,HepG2 spheroids,annexin V-FITC/PI flow cytometry,,"10 µM, 24 h",,late apoptotic cells,8.26 ± 5.47%
CC(C)(Oc1ccc(Cl)cc1)C(=O)O,HEK293-H PPARγ-UAS-bla cells,cell confluency,,"24 h, nominal concentration",baseline: baseline IC10 over IC10,toxic ratio,0.33
O=c1[nH]c(=O)n([C@H]2C[C@H](O)[C@@H](CO)O2)cc1/C=C/Br,HEL human embryonic lung fibroblasts,cell morphology alteration,,,,minimum cytotoxic concentration,> 250 µM
CNC(=O)Oc1cccc2ccccc12,SH-SY5Y,"cell viability, propidium iodide staining",,"24 h, nominal concentration",,IC10,40.4 µM
N#C[C@@]1(n2ccc(N)nc2=O)O[C@H](CO)[C@@H](O)[C@H]1O,CHO,,,"31 µM, with S9",,micronucleated cells,0.09%
O=C(O)C(F)(F)C(F)(F)C(F)(F)F,hTERT-RPTEC parental,,,"concentration not given, 96-well plate",,LDH release,28.9 mU/mL and 14.7 mU/mL and 23.6 mU/mL and 30 mU/mL
CN1CC[C@@H](c2c(O)cc(O)c3c(=O)cc(-c4ccc(C(F)(F)F)cc4Cl)oc23)[C@@H]1CO,,refers to: Sepsis,B-cell malignancies or AML,"oral, 100 mg, continuous dosing",,patients with adverse event,12.5%

# A few entries again:
Compound,tested on,test,test system,conditions,scale,endpoint,value
O=c1ccc2ccccc2o1,NHEK,cell count,,"concentration not given, 1 h, NRF2 oxidative stress panel",,chance response,0%
CC[C@H](C)[C@H](NC(=O)[C@H](Cc1ccccc1)NC(=O)[C@H](CCC(=O)O)NC(=O)[C@H](CCCNC(=N)N)NC(=O)[C@H](C)NC(=O)[C@H](C)NC(=O)[C@H](CCC(N)=O)NC(=O)[C@H](CCC(=O)O)NC(=O)[C@H](CCC(=O)O)NC(=O)[C@H](CC(C)C)NC(=O)[C@H](Cc1ccc(O)cc1)NC(=O)[C@H](CO)NC(=O)[C@H](CO)NC(=O)[C@@H](NC(=O)[C@H](CC(=O)O)NC(=O)[C@H](CO)NC(=O)[C@@H](NC(=O)[C@H](Cc1ccccc1)NC(=O)[C@@H](NC(=O)CNC(=O)[C@H](CCC(=O)O)NC(=O)[C@H](C)NC(=O)CCc1c[nH]cn1)[C@@H](C)O)[C@@H](C)O)C(C)C)C(=O)N[C@@H](C)C(=O)N[C@@H](Cc1c[nH]c2ccccc12)C(=O)N[C@@H](CC(C)C)C(=O)N[C@H](C(=O)N[C@@H](CCCNC(=N)N)C(=O)NCC(=O)N[C@@H](CCCNC(=N)N)C(=O)N[C@@H](CCCCNC(=O)COCCOCCNC(=O)COCCOCCNC(=O)CC[C@H](NC(=O)CCCCCCCCCCCCCCCCC(=O)O)C(=O)O)C(=O)NCC(=O)NCC(=O)N[C@@H](CO)C(=O)N[C@@H](CCCCNc1c(NCCCCCN(O)C(=O)CCC(=O)NCCCCCN(O)C(=O)CCC(=O)NCCCCCN(O)C(C)=O)c(=O)c1=O)C(=O)O)C(C)C [zirconium-89 labelled],,,"rat, spleen","iv, 3 nmol/kg, 72 h, ex vivo",,tissue uptake,0.46 %ID/g
